Experimental data gathered from unrelated publications.
Each numbered part is a random draw from the data of one study; scales do not carry over between parts. Changes are numbered by the printed parent chain.
Sequence of UniProt O23661 (whole entry, looked up): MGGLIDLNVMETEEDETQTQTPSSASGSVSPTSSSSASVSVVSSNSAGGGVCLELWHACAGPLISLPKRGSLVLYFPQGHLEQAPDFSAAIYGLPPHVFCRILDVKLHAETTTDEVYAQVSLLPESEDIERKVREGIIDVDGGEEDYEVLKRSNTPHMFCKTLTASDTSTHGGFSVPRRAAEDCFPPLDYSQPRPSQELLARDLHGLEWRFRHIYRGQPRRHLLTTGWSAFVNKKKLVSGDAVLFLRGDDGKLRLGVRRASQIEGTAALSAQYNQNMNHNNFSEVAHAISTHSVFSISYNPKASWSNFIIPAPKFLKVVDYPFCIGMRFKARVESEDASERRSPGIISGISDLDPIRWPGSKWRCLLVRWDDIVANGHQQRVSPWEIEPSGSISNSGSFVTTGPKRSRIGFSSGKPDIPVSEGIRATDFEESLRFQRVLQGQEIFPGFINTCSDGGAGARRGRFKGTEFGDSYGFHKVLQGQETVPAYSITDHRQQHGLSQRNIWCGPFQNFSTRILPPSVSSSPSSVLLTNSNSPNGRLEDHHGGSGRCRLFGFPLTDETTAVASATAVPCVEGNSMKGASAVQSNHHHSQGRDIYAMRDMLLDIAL
Sequence of UniProt Q9ZSY8 (whole entry, looked up): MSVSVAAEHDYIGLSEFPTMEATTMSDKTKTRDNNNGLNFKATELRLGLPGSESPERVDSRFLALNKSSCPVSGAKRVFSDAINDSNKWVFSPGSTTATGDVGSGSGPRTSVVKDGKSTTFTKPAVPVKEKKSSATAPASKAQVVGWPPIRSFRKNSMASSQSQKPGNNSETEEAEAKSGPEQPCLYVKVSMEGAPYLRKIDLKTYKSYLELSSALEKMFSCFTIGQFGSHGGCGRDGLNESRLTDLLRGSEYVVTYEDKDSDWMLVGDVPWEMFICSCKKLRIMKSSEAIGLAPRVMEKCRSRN
Sequence of UniProt Q9FX25 (whole entry, looked up): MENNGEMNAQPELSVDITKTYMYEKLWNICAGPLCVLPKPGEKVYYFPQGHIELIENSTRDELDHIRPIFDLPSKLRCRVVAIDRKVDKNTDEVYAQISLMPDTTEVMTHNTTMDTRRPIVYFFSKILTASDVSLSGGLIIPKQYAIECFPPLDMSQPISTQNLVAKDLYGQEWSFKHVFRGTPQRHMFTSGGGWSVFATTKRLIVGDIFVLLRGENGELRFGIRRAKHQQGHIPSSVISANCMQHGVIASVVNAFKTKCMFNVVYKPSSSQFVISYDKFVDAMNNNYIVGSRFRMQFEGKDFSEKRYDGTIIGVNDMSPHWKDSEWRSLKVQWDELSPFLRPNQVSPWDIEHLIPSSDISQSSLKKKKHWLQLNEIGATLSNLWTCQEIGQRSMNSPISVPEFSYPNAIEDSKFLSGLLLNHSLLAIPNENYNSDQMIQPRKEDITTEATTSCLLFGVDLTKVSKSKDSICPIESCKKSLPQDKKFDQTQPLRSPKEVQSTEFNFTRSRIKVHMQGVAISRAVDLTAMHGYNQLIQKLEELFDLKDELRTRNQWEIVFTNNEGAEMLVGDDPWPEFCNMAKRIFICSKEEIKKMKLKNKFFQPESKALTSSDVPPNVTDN

Series 1
Partner: ARF22 498-598 (Arabidopsis thaliana, UniProt Q9C8N7)
Technique: two-hybrid
Baseline: out of 4 tests
Reading: higher = firmer interaction
Residues (chain): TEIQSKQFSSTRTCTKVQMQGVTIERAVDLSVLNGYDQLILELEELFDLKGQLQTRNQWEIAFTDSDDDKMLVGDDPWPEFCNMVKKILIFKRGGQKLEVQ
| Molecule | positive tests |
| --- | --- |
| IAA27 (Arabidopsis thaliana, UniProt Q9ZSY8) | 2 |
| ETT (Arabidopsis thaliana, UniProt O23661) | 0 |
| ARF13 (Arabidopsis thaliana, UniProt Q9FX25) | 0 |

Series 2
Target: RNA binding protein fox-1 homolog 2, RRM domain, GST-SBP tag (RBFOX2, Homo sapiens, UniProt O43251-10, residues 100-194)
Technique: RNA Bind-n-Seq
Form: RNA
Matrix: in vitro
Tested at: 365 nM
Setting: natural RNA segment, single round, ends assumed
Baseline: no-protein control
Reading: higher = stronger binding
Constant ends, left off below: GGGAGUUCUACAGUCCGACGAUC … UGGAAUUCUCGGGUGCCAA
Target sequence (chain): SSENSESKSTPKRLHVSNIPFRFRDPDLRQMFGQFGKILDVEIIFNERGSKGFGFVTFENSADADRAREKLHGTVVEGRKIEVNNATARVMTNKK
| Strand | RBNS enrichment (R) |
| --- | --- |
| CAUGUGAUGAUACAUGGGAAGAACUAUAGAAAGAAUUAUCCAGAAGCUAAGAUUUGAUGGCCAGCUGGUUGCCAAAACCUCAAGUCAAUCCUGUGUGCUGGUUAGUUAUG | 0.436 |
| UAGAAUAAUUCUCAGCUUCCCUUGCUUUCUAUCUUGUGUGUAGUGAAAUAAUAGAGCGAGCACCCAUUCCAAAGCUUUAUUACCAGUGACGUUGUUGCAUGUUUGAAAUU | 3 |
| GUUGCAACUCCCAACCCCGAAUCUUUGCAGCCGUUCGGCCCUGAAAGAUGCCCUAUCCAUGAGAUGCCUUUUCAUCUGCAAACUCUGCAAAAUGUGUCUCAUGUUUCGCA | 0.602 |
| GAUUUGAAUACAUUUUUCUGGAACUAUUCAUAAUAUGAAGUUUUCCUAGAACCACUGAGUUUCUAGUUUAAUAGUUUGCUAUGCAAAUGACCACCUAAAACAAUACUUUA | 0.661 |
| UCUGAUCUUCCAUUAGACUUAGGGGUCAUGAUAUGAGUGGAAUUUACAUUUUAGAUACUAUAGGGGAAAGAAAAGUCUCAAAAAGAAGUAUUGCAUGUCUAAAAGCUAGU | 3.79 |
| GGAGAUGGCUGGGACCACUGCACAGGAGGGCGCAGCCUGGCGUCGCCAUGAAAGUUGUCUCUGUGCCAUCUCUCCGGUCCUUGAGGAGAGCCCAGAAAGAUUUUAGGACC | 0.275 |
| CCCCAGGCUCCUCCUCCAAAUGCCAGCUGUGCCCACAAGCUGUUCUUAGGGCUCACACUCGCCUUUUGGCGCGUGGUGGGUUUUUGGUAGUGCAGAAAGAAUCCAGGGAU | 0.268 |
| UCUGGGAAAGGGAGCUGGCCUAUUGCCCACCACCUGUUGUCAGUAGGUUAGGAGCUGUUGACUCAGGAUGAGGAAGUAUGGUCUUUAAAAAAAACAAAAUAUAUUUUAGA | 1.02 |

Series 3
Molecule: PHB1 (Homo sapiens, UniProt P35232)
Technique: cross-linking MS
Matrix: cell fractions
| partner | conditions | cross-linked residues |
| --- | --- | --- |
| SMCO1 (Homo sapiens, UniProt Q147U7) | with: DMTMM | E242 to K174 |
| LYSMD3 (Homo sapiens, UniProt Q7Z3D4) | with: DHSO | D217 to D165 |
| PCDH1 (Homo sapiens, UniProt Q08174) | with: DMTMM | E215 to K367 |
| RAB10 (Homo sapiens, UniProt P61026) | with: DSSO | K202 to K136 |

Series 4
Target: vanadate, free oxyanion
Technique: microfluidic competitive inhibition
Matrix: in vitro, cell-free expressed
Tested at: not given
Setting: derived from inhibition constants, unchanged parent 676 nM
Reading: lower = stronger binding
Starting sequence: PafA, mature enzyme, eGFP fusion (Elizabethkingia meningoseptica, UniProt Q9KJX5); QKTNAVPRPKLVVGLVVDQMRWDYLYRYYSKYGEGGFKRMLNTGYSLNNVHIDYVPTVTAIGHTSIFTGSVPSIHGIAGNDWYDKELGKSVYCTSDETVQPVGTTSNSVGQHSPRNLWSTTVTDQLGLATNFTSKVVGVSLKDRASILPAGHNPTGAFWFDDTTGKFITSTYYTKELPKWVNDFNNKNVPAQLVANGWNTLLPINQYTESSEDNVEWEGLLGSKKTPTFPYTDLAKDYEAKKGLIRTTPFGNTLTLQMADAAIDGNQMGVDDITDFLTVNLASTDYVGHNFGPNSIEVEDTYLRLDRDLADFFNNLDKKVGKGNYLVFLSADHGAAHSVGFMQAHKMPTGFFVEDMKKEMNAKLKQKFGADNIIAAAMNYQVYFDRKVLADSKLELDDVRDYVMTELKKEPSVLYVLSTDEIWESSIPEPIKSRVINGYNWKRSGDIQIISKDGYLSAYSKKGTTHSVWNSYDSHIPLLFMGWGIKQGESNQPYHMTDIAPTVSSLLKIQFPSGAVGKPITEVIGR
| Change | oxyanion analog dissociation constant |
| --- | --- |
| T232V | 1640 nM |
| G288A | 589 nM |
| S283V | 2090 nM |
| L277V | 600 nM |
| T123V | 1250 nM |

Series 5
Target: OGT, full length, His-tagged (human)
Technique: phage display, sequencing
Matrix: in vitro
Tested at: 1 µg OGT
Setting: single substitutions, 15-mer displayed peptide, unchanged parent 16.7
Baseline: input library
Reading: higher = stronger binding
Starting sequence: peptide; NSEYMPQYQIIFAHQ
| Change | fold enrichment |
| --- | --- |
| YSEYMPQYQIIFAHQ [N1Y] | 15.9 fold |
| NSEYMPQYQIIFAHW [Q15W] | 7.44 fold |
| NSEYMPQYQIIFAHA [Q15A] | 9.81 fold |
| NSEYSPQYQIIFAHQ [M5S] | 7.96 fold |
| ISEYMPQYQIIFAHQ [N1I] | 24.9 fold |
| NSEYMPQYQIIFHHQ [A13H] | 18.3 fold |
| NSEYMPQYQMIFAHQ [I10M] | 1.82 fold |
| SSEYMPQYQIIFAHQ [N1S] | 16.5 fold |

Series 6
Molecule: H2BC12L (Homo sapiens, UniProt P57053)
Technique: cross-linking MS
Setting: hits only
| partner | interaction screen |
| --- | --- |
| H2BC5 (Homo sapiens, UniProt P58876) | cross-linked |
| H2AC6 (Homo sapiens, UniProt Q93077) | cross-linked |
| H2BC18 (Homo sapiens, UniProt Q5QNW6) | cross-linked |

Series 7
Target: CCNE1, cyclin fold, Cln2 fusion (human)
Technique: yeast growth competition, sequencing
Matrix: yeast
Setting: strong parent motif
Baseline: not given
Reading: higher = stronger binding
Starting sequence: viral docking peptide; YKVKRRLVFGADD; partner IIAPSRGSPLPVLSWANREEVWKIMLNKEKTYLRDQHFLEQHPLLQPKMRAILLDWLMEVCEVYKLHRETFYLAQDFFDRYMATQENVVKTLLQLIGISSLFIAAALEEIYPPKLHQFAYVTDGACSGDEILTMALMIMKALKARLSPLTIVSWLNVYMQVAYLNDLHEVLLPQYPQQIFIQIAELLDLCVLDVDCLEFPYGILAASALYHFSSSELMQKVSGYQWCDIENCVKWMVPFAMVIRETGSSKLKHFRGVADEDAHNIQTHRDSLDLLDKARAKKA
| Change | normalised enrichment score |
| --- | --- |
| YKVKRRLVSGADD [F9S] | 0.188 |
| YSVKRRLVFGADD [K2S] | 5.78 |
| YKVKKRLVLGADD [R5K F9L] | 0.298 |
| YKVKRRLVRGADD [F9R] | -0.059 |
| YKVKRRLVFYADD [G10Y] | 5.06 |
| YKVMRRLVFGADD [K4M] | 1.94 |
| YKVKRALVFGADD [R6A] | 2.89 |
| YKVKRRLWFGADD [V8W] | 5.52 |
| YNVKRRLVFGADD [K2N] | 6.36 |
| YKVKRRHVFGADD [L7H] | 0.149 |
| YKVKRRLDFGADD [V8D] | 7.13 |
| YKVKRRLGFGADD [V8G] | 2.15 |
| YKVKRRLVFGAAD [D12A] | 5.19 |
| YKVKRRLVLGADD [F9L] | 1.42 |
| YKVKRRLVFGAKD [D12K] | 3.63 |
| YKVKRDLVFGADD [R6D] | 0.0796 |
| YKVKRRLVHGADD [F9H] | 0.344 |
| YKAKRRLVFGADD [V3A] | 5.67 |
| YKVKRRLVFGAHD [D12H] | 4.66 |
| YQVKRRLVFGADD [K2Q] | 5.75 |
| YKVKRVLVFGADD [R6V] | 5.63 |
| YKVKRRLVFGNDD [A11N] | 6.36 |
| YKVKRRLMFGADD [V8M] | 6.01 |
| YLVKRRLVFGADD [K2L] | 5.22 |
| YKVKRRLVYGADD [F9Y] | 2.84 |

Single results of other studies
| Compound | target | assay | conditions | measurement | result |
| --- | --- | --- | --- | --- | --- |
| CNC(=O)c1ccc(Nc2ncc(C(F)(F)F)c(NCc3nccnc3N(C)S(C)(=O)=O)n2)cc1 | Serine/threonine-protein kinase PknB (pknB, Mycobacterium tuberculosis, UniProt P9WI81) | cell-free assay, competition with immobilised ligand | 0.1 µM | remaining binding | 69% |

A few entries again (series 2):
| Strand | RBNS enrichment (R) |
| --- | --- |
| GAUUUGAAUACAUUUUUCUGGAACUAUUCAUAAUAUGAAGUUUUCCUAGAACCACUGAGUUUCUAGUUUAAUAGUUUGCUAUGCAAAUGACCACCUAAAACAAUACUUUA | 0.661 |
| GUUGCAACUCCCAACCCCGAAUCUUUGCAGCCGUUCGGCCCUGAAAGAUGCCCUAUCCAUGAGAUGCCUUUUCAUCUGCAAACUCUGCAAAAUGUGUCUCAUGUUUCGCA | 0.602 |
| UCUGGGAAAGGGAGCUGGCCUAUUGCCCACCACCUGUUGUCAGUAGGUUAGGAGCUGUUGACUCAGGAUGAGGAAGUAUGGUCUUUAAAAAAAACAAAAUAUAUUUUAGA | 1.02 |
| GGAGAUGGCUGGGACCACUGCACAGGAGGGCGCAGCCUGGCGUCGCCAUGAAAGUUGUCUCUGUGCCAUCUCUCCGGUCCUUGAGGAGAGCCCAGAAAGAUUUUAGGACC | 0.275 |
| CCCCAGGCUCCUCCUCCAAAUGCCAGCUGUGCCCACAAGCUGUUCUUAGGGCUCACACUCGCCUUUUGGCGCGUGGUGGGUUUUUGGUAGUGCAGAAAGAAUCCAGGGAU | 0.268 |
